Experimental data of several laboratories.
Compare with care: the assays were run in different laboratories. Several values in a cell are separate wells, animals, samples, runs or records. ± marks the error that the study gave.

SMILES = Cc1nc(-c2ccc(OCC(C)C)c(C#N)c2)sc1C(=O)O; system = human, plasma; conditions = oral, 20 mg, together with: verinurad 10 mg; scale = baseline: test over reference; quantity = geometric mean ratio AUC(0-24); result = 94.5
SMILES = Cc1cc(Nc2ccc(S(F)(F)(F)(F)F)cc2)n2nc(C(C)(F)F)nc2n1; system = Plasmodium vivax malaria patients; conditions = oral, 800 mg; quantity = adverse event Asthenia; result = 0%
SMILES = Cc1cc(C)c(CNC(=O)c2cc(Cl)c3c(c2C)O[C@@](C)([C@H]2CC[C@H](N(C)C)CC2)O3)c(=O)[nH]1; assay = measured: Dyspnea; system = human patients; conditions = oral, 200 mg once daily, 1 day onset day 14; quantity = patients with TEAE; result = 0%
SMILES = CC(C)c1nc(N(C)S(C)(=O)=O)nc(-c2ccc(F)cc2)c1/C=C/[C@@H](O)C[C@@H](O)CC(=O)O; assay = measured: haematoma; system = healthy men; conditions = oral, dose not given, 8 days, treatment-emergent, crossover trial; quantity = subjects with adverse event; result = 0%
SMILES = COC(=O)C1=CO[C@@H](O[C@@H]2O[C@H](CO)[C@@H](O)[C@H](O)[C@H]2O)[C@@H]2C(CO)=CC[C@H]12; system = rat plasma; conditions = 200 ng/mL, 2 weeks, -70 °C, post-preparative stability; quantity = accuracy; result = 103%
SMILES = CC[C@@](O)(c1cnc(C(F)(F)F)c(Cl)c1)c1c2ccn(C3CC3)c(=O)c2nn1C; system = Sprague-Dawley rat, male, plasma; conditions = intravenous, 1 mg/kg; quantity = volume of distribution at steady state; result = 3.1 ± 0.207 L/kg
SMILES = COc1cccc(OC)c1-c1cc(C(=O)NC2(C(=O)O)C3CC4CC(C3)CC2C4)nn1-c1ccc(C(=O)N(C)CCCN(C)CCCN(C)C(=O)CN2CCN(CC(=O)[O-])CCN(CC(=O)[O-])CCN(CC(=O)[O-])CC2)cc1C(C)C.[177Lu+3] (stereo not shown); system = mouse HT-29 xenograft; conditions = 4 h, biodistribution; scale = baseline: tumour over pancreas; quantity = tumour-to-pancreas ratio; result = 16.8
SMILES = CNC(=O)c1ccc(-c2cnc3ncc(Cc4ccc5ncccc5c4)n3n2)cc1F; assay = measured: Asthenia, all grades; system = cancer patients; conditions = oral, 600 mg twice daily, other expansion cohort, any causality; quantity = patients with adverse event; result = 11%
SMILES = CN[C@@H]1COc2c(S(=O)(=O)NC(=O)Nc3c4c(cc5c3CCC5)CCC4)cnn2C1; system = human, high-fat meal, urine; conditions = oral, 600 mg, 48 h; quantity = renal clearance; result = 8.32 mL/min
SMILES = C[C@H](O)[C@@H](O)[C@@H](O)[C@H](O)C(=O)O; assay = binding, MIDAS equilibrium dialysis LC-MS; system = A2AR-BRIL thermostabilized; conditions = concentration not given; scale = baseline: no-protein control; quantity = log2 fold change; result = 0.0517
SMILES = CNC(=O)c1ccc(-c2cnc3ncc(Cc4ccc5ncccc5c4)n3n2)cc1F; system = Japanese patients; conditions = oral, 400 mg, any grade; quantity = Pneumonitis dose reduction/interruption; result = 1%
SMILES = CCO[C@H]1CCN(Cc2c(OC)cc(C)c3[nH]ccc23)[C@H](c2ccc(C(=O)O)cc2)C1; system = PNH patients, active haemolysis; conditions = oral, 100 mg, 8 weeks, treatment; quantity = incidence upper respiratory infection; result = 28.6%
SMILES = CC(C)[C@H](C(=O)Nc1ccc(C(=O)NO)cc1)c1ccccc1; system = whole blood; conditions = 1000 ng/mL, 0 h, 4 °C, stability on ice; quantity = accuracy; result = 100%
SMILES = CCn1cc(C(=O)N2CCOCC2)c(=O)c2cc(NC3Cc4ccccc4C3)cnc21; system = human, fasted; conditions = oral suspension, 2000 mg single dose, arithmetic mean; quantity = AUC(0-last); result = 5190 ng·h/mL
SMILES = CN1CC(=O)N2[C@H](c3ccc4c(c3)OCO4)c3[nH]c4ccccc4c3C[C@@H]2C1=O; system = human plasma; conditions = 1.50 ng/mL, freeze-thaw at -20 °C; quantity = accuracy; result = 100%
SMILES = Cc1c(-c2ccc(N3CCc4cccc(C(=O)Nc5nc6ccccc6s5)c4C3)nc2C(=O)O)cnn1CC12CC3(C)CC(C)(C1)CC(OCCNCC[C@H](O)CO)(C3)C2; system = beagle dog, male, anaesthetised; conditions = intravenous infusion, 0.3 mg/kg/min, 105 (unit not given); scale = baseline: vehicle; quantity = heart rate change; result = -16%
SMILES = CNC(=O)c1cc(Oc2ccc(NC(=O)Nc3ccc(Cl)c(C(F)(F)F)c3)c(F)c2)cc[n+]1[O-]; assay = short-term stability; system = mouse plasma; conditions = 25 ng/mL, 8 h, room temperature; quantity = accuracy; result = 98.2%
SMILES = O=C(Cc1ccc2ccccc2c1)Nc1cc(C2CCC2)[nH]n1; system = mouse plasma; conditions = 0.5 ng/mL, -80 °C, freeze-thaw stability, together with: 3 freeze-thaw cycles; quantity = accuracy; result = 104%
SMILES = Cc1cc(C)c(CNC(=O)c2cc(Cl)c3c(c2C)O[C@@](C)([C@H]2CC[C@H](N(C)C)CC2)O3)c(=O)[nH]1; system = human male, urine and feces; conditions = oral, 200 mg, 120 h; scale = baseline: dose; quantity = radioactivity recovery; result = 90%
SMILES = N#Cc1ccc2c(c1)[C@H]1CCCN(C(=O)c3ccc4[nH]cnc4c3)[C@H]1C2; system = human; conditions = 40 mg, day 7; quantity = median ACTH level; result = 6.6 pmol/L
SMILES = N[C@@H](CC(=O)N1CCn2c(nnc2C(F)(F)F)C1)Cc1cc(F)c(F)cc1F; system = male human, plasma; conditions = oral, 100 mg single dose; quantity = AUC(0-2); result = 474 ± 198 ng·h/mL
SMILES = CC(C)(C(=O)N1CCOc2c(C#N)cncc2C1)C(F)F; assay = measured: cutaneous vasculitis; system = human, both sexes; conditions = oral, 10 mg once daily, 14 days, multiple ascending dose; quantity = subjects with TEAE; result = 0%
SMILES = CO[C@H]1/C=C/O[C@@]2(C)Oc3c(C)c(O)c4c(c3C2=O)C2=NC3(CCN(CC(C)C)CC3)NC2=C(NC(=O)/C(C)=C\C=C\[C@H](C)[C@H](O)[C@@H](C)[C@@H](O)[C@@H](C)[C@H](OC(C)=O)[C@@H]1C)C4=O; system = CD-1 mouse, female, plasma; conditions = intravenous, 5 mg/kg; quantity = Vd; result = 3.5 L/kg
SMILES = FC(F)(F)c1ccc(CNc2ccc(Cc3c[nH]c4ncc(Cl)cc34)cn2)cn1; assay = measured: Dizziness; system = patients with advanced solid tumours, non-TGCT cohort; conditions = oral, 1000 mg/day, any grade; quantity = treatment-related adverse events; result = 0%
SMILES = CO[C@H]1/C=C/O[C@@]2(C)Oc3c(C)c(O)c4c(c3C2=O)C2=NC3(CCN(CC(C)C)CC3)NC2=C(NC(=O)/C(C)=C\C=C\[C@H](C)[C@H](O)[C@@H](C)[C@@H](O)[C@@H](C)[C@H](OC(C)=O)[C@@H]1C)C4=O; system = CD-1 mouse, female, plasma; conditions = 10 mg/kg single dose; quantity = Vd; result = 3.51 L/kg
SMILES = CCc1cc(C(=O)NC)c2nccc(N3CCc4c(cc(Cn5ccnc5)cc4-c4cn(C)nc4C(F)(F)F)C3=O)c2c1; system = Sprague Dawley rats; conditions = oral, 100 mg/kg twice daily, 7 days; quantity = gastrocnemius weight; result = 2.77 ± 0.154 g
SMILES = c1ccc2c(c1)ccc1cc3c(ccc4ccccc43)cc12; system = polyethylene-water partitioning; conditions = PAH compilation; scale = baseline: maximum over minimum K; quantity = literature range factor; result = 48
SMILES = CC(C)[C@H](NC(=O)[C@H](Cc1ccc(O)cc1)NC(=O)[C@H](Cc1ccc(O)cc1)NC(=O)[C@@H]1CCCN1C(=O)[C@H](CCC(=O)O)NC(=O)[C@H](CCC(=O)O)NC(=O)[C@H](Cc1c[nH]c2ccccc12)NC(=O)[C@@H]1CCCN1C(=O)[C@@H](NC(=O)[C@H](CCC(N)=O)NC(=O)c1ccc2c(c1)C(=O)OC21c2ccc(O)cc2Oc2cc(O)ccc21)C(C)C)C(=O)N[C@H](C(=O)N[C@@H](CCCCN)C(=O)N[C@@H](CCCCN)C(=O)N[C@@H](CO)C(=O)N[C@@H](CO)C(=O)NCC(=O)NCC(N)=O)C(C)C; system = human, plasma; conditions = intravenous infusion, 400 mg, 2 h after infusion start; quantity = plasma concentration; result = 485 ng/mL and 387 ng/mL
SMILES = COc1ccc2c(=O)n(C)c(-c3ccccc3)nc2c1; system = Sprague-Dawley rat, male, lung; conditions = oral, 30 mg/kg, 0.25 h; scale = baseline: lung over plasma; quantity = tissue/plasma ratio; result = 0.95
SMILES = O=C(Nc1nc2cccc(-c3ccc(CN4CCS(=O)(=O)CC4)cc3)n2n1)C1CC1; assay = measured: renal and urinary disorders; system = rheumatoid arthritis patients; conditions = oral, 150 mg once daily, 4 weeks, any relatedness; quantity = treatment-emergent adverse events; result = 0%
SMILES = O=C(O)[C@@H](O)[C@@H](O)[C@H](O)[C@@H](O)C(=O)O; assay = binding, MIDAS equilibrium dialysis LC-MS; system = A2AR-BRIL thermostabilized; conditions = concentration not given; scale = baseline: no-protein control; quantity = log2 fold change; result = -0.124
SMILES = COc1ccc2[nH]c([S@+]([O-])Cc3ncc(C)c(OC)c3C)nc2c1; system = human male, dried plasma spots; conditions = dose not given, mean of (R)- and (S)-enantiomers, together with: fluvoxamine and voriconazole; scale = baseline: inhibition over control; quantity = AUC fold change; result = 8.1
SMILES = Cn1cc(-c2ccc(-c3cncc(Cl)c3N3CCC4(CCNC4=O)CC3)cc2)cn1; target or system = COLO 205; assay = gene expression, microarray, measured: VIL1 mRNA; conditions = concentration not given, 6 h; scale = baseline: untreated cells; quantity = log2 fold change; result = -1.88
SMILES = COc1cc(Nc2ncc3c(n2)-c2ccc(Cl)cc2C(c2c(F)cccc2OC)=NC3)ccc1C(=O)O; system = cancer patients; conditions = oral, dose not given, all grades any attribution, together with: pembrolizumab; quantity = patients with dry skin; result = 4%
SMILES = O=C(O)CCC(=O)O.[2H]C([2H])([2H])Oc1cc(C)c2[nH]ccc2c1CN1CC[C@@H](C2CC2)C[C@H]1c1ccc(C(=O)O)cc1; assay = multiple ascending dose; system = healthy Chinese subjects; conditions = 200 mg once daily; quantity = subjects with increased creatinine TEAE; result = 0%
SMILES = Cc1ccc(-c2ccccc2C(=O)NC[C@@]2(C3CC3)NC(=O)NC2=O)cc1; system = rat Wistar male; conditions = intravenous; quantity = blood clearance; result = 30 mL/min/kg
SMILES = CO[C@H]1C[C@@H]2CC[C@@H](C)[C@@](O)(O2)C(=O)C(=O)N2CCCC[C@H]2C(=O)O[C@H]([C@H](C)C[C@@H]2CC[C@@H](O)[C@H](OC)C2)CC(=O)[C@H](C)/C=C(\C)[C@@H](O)[C@@H](OC)C(=O)[C@H](C)C[C@H](C)/C=C/C=C/C=C/1C; system = healthy adult horses; conditions = intravenous, 0.06 mg/kg, 24 h; quantity = rectal temperature; result = 37 ± 0.3 °C
SMILES = C=CC(=O)NC1CCN(c2ncc3ncnc(Nc4ccc(Oc5ccc6c(c5)ncn6C)c(C)c4)c3n2)CC1; assay = measured: gastrointestinal disorders (SOC); system = human male; conditions = oral, dose not given, AEs, treatment-related, on drug, CTCAE; quantity = adverse events incidence; result = 0%
SMILES = Cn1cc([C@H]2C[C@H]3CSC(N)=N[C@@]3(c3ccc(F)cc3F)CO2)cn1; system = male 129/SVE mouse, CSF; conditions = subcutaneous, 50 mg/kg, 3 h; quantity = CSF concentration; result = 1210 nM
SMILES = CN(C(=O)n1cnc(-c2cccnc2)c1)[C@H]1CC[C@H](O)CC1; system = rat, cortex; conditions = oral, 10 mg/kg daily for 5 days, 48 h; quantity = tissue concentration; result = 14.3 ± 0.7 ng/g
SMILES = CNCCOC12CC3(C)CC(C)(CC(Cn4ncc(-c5ccc(N6CCc7cccc(C(=O)Nc8nc9ccccc9s8)c7C6)nc5C(=O)O)c4C)(C3)C1)C2; system = anaesthetised male beagle dogs; conditions = intravenous bolus, 0.03 mg/kg, 15 min; quantity = plasma concentration; result = 14 ± 1.2 ng/mL
SMILES = C[C@@H]1CCO[C@H]2Cn3cc(C(=O)NCc4ccc(F)cc4F)c(=O)c(O)c3C(=O)N12; assay = population PK, post-hoc; system = children, 6 to <10 kg, plasma; conditions = oral, 20 mg dispersible tablet, steady state, geometric mean; quantity = AUC(0-24); result = 89500 ng·h/mL
SMILES = O=C(O)C1=CO[C@@H](O[C@@H]2O[C@H](CO)[C@@H](O)[C@H](O)[C@H]2O)[C@@H]2C(CO)=CC[C@H]12; system = rat plasma; conditions = 1000 ng/mL, 2 weeks, -70 °C, post-preparative stability; quantity = accuracy; result = 93%

Excerpt of the above:
SMILES = CCO[C@H]1CCN(Cc2c(OC)cc(C)c3[nH]ccc23)[C@H](c2ccc(C(=O)O)cc2)C1; system = PNH patients, active haemolysis; conditions = oral, 100 mg, 8 weeks, treatment; quantity = incidence upper respiratory infection; result = 28.6%
SMILES = CC(C)[C@H](C(=O)Nc1ccc(C(=O)NO)cc1)c1ccccc1; system = whole blood; conditions = 1000 ng/mL, 0 h, 4 °C, stability on ice; quantity = accuracy; result = 100%
